# Results collected from several papers.
# Each line is one published result; not all experiments were run side by side. “And” joins repeats or separate records; there may be more than shown. ± gives the spread as reported.
# Sequence of UniProt P22736 (whole entry, looked up): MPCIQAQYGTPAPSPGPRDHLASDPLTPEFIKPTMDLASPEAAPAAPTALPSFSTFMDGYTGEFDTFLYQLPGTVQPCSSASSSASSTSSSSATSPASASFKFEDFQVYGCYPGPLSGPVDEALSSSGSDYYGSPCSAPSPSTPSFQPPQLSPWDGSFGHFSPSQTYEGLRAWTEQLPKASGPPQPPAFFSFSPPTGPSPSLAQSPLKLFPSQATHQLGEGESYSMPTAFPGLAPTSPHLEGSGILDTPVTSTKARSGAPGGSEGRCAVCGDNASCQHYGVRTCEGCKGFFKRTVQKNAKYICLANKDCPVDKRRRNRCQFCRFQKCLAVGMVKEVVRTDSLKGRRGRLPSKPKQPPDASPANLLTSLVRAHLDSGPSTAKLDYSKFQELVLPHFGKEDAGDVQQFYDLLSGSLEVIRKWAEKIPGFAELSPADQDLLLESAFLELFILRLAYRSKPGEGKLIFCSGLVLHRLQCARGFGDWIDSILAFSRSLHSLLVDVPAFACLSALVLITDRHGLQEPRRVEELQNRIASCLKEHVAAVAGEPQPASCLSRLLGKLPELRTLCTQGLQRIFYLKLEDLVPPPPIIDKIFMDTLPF
# Sequence of UniProt Q91WU0 (whole entry, looked up): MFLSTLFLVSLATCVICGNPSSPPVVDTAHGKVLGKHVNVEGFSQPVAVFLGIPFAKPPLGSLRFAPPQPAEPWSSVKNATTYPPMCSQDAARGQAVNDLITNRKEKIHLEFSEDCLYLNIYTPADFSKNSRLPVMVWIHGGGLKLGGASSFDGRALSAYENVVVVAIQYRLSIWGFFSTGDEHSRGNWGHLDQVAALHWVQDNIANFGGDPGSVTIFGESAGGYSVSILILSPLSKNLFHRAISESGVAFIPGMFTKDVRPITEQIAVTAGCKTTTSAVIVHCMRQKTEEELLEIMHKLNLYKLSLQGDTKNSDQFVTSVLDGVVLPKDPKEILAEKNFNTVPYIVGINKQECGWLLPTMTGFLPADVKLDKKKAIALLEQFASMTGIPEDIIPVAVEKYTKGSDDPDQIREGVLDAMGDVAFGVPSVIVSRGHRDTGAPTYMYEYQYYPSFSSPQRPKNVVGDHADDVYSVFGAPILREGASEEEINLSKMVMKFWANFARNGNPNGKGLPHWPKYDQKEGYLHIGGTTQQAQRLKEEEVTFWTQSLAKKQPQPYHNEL
# Sequence of UniProt P00441 (whole entry, unmodified, looked up): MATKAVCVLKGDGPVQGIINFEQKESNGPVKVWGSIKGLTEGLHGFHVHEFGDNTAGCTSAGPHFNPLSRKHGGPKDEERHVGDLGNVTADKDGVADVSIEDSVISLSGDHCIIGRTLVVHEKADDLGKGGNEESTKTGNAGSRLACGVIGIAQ
# Sequence of UniProt Q92499 (whole entry, looked up): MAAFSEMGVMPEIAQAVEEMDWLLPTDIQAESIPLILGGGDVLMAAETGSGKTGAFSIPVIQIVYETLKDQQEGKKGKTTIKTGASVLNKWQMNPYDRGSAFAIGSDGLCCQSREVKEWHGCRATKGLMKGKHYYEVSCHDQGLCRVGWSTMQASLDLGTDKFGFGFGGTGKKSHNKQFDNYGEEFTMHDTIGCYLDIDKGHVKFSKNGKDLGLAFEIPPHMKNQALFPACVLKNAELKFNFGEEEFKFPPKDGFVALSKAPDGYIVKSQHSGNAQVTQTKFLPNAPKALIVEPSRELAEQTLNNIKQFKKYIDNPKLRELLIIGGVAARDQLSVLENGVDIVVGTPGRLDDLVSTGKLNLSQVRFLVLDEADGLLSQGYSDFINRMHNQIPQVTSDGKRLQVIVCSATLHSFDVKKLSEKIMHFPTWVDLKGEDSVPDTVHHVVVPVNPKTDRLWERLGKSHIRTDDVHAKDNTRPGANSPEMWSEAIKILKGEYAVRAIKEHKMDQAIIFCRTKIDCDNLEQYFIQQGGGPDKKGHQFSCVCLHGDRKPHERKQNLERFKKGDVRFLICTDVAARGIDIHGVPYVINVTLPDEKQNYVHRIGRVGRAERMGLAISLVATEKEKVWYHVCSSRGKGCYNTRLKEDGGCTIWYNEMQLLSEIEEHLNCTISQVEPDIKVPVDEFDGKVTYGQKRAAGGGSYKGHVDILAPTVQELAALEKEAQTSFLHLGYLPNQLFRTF
# Sequence of UniProt Q460N5 (whole entry, looked up): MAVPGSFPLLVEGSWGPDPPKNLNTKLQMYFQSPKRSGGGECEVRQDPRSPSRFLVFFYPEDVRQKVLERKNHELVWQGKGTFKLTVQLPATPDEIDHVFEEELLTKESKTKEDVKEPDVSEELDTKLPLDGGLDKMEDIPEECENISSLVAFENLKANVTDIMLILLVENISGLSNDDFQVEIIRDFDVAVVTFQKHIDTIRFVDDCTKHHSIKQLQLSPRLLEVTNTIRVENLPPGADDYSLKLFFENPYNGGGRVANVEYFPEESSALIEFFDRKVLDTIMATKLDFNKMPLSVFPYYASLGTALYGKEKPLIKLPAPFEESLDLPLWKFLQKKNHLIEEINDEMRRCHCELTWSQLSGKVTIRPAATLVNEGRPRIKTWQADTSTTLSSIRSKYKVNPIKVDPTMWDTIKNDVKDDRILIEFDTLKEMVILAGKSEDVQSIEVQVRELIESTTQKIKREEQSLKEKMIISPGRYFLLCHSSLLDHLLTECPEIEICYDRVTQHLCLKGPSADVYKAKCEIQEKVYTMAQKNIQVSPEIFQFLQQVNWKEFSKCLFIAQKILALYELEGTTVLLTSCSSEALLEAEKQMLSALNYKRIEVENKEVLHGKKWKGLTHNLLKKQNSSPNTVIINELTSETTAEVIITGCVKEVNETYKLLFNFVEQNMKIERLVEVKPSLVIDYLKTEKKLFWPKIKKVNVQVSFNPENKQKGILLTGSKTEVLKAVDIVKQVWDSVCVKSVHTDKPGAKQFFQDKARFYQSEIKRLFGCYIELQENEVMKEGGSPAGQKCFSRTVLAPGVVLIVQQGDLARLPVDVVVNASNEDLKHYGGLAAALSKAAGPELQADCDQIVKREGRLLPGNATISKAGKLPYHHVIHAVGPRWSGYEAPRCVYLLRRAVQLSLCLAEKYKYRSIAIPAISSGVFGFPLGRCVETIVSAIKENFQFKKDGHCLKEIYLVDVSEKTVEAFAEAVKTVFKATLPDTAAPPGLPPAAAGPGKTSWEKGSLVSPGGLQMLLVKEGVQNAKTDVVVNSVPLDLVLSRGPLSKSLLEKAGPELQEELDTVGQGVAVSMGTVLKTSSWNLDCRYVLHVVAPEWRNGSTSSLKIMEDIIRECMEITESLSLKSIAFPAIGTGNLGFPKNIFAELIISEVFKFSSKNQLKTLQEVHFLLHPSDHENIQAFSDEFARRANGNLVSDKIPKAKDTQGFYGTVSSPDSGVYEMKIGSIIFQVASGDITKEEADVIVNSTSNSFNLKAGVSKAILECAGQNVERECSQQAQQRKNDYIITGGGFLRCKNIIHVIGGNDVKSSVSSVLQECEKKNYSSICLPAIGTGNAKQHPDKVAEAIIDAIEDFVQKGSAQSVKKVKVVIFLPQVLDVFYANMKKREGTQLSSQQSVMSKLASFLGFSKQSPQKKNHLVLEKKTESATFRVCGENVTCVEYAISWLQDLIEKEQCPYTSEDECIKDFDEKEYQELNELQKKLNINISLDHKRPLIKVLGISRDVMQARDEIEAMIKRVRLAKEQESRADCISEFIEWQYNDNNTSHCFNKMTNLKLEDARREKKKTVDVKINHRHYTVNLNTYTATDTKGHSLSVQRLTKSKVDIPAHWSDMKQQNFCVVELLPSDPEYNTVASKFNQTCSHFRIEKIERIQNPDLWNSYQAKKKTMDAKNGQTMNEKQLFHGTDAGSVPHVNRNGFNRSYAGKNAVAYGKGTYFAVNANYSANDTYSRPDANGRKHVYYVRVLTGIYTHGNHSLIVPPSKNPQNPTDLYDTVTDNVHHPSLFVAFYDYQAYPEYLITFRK
# Sequence of UniProt O43148 (whole entry, looked up): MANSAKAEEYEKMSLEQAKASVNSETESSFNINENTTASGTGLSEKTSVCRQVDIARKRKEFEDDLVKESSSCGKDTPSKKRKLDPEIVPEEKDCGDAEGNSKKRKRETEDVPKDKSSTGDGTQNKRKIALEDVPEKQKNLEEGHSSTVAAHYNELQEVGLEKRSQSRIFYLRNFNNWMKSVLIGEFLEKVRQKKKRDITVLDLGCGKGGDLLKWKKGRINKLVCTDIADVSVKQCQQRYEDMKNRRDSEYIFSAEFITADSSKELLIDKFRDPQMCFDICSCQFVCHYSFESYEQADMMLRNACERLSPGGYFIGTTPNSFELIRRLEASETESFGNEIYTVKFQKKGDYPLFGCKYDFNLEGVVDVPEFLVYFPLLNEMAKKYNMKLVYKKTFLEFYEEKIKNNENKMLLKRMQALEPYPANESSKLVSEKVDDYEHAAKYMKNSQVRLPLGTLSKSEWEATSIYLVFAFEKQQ
# Sequence of UniProt Q92207 (whole entry, looked up): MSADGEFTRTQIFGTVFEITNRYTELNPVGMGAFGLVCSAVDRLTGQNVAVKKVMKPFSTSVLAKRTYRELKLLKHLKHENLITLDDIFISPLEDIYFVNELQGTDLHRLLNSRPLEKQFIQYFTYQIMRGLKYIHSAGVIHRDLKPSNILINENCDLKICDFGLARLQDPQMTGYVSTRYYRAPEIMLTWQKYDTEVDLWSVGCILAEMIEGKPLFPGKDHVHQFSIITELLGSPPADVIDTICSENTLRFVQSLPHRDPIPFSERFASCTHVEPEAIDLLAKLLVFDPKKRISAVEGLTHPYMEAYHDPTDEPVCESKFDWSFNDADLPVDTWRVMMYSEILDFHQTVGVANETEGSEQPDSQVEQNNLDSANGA
Compound,target or system,test,system,conditions,how to read,measurement,result
N=C(N)NCCC[C@H](N)C(=O)O,"uncharacterized protein (Pelagibacter ubique, UniProt Q4FLC2)",isothermal titration calorimetry,Candidatus Pelagibacter ubique,"displacement titration, added: octopine competitor 1 mM",,Ka,9.49e+09 M⁻¹ and 2.48e+10 M⁻¹ and 1.24e+10 M⁻¹ and 1.5e+10 M⁻¹
c1coc(-c2n[nH]cc2-c2ccnc3ccccc23)c1,"Mitogen-activated protein kinase HOG1 (HOG1, Candida albicans, UniProt Q92207)","kinase binding, MIB/MS competition",Candida albicans lysate,10 µM,"baseline: DMSO, negative = stronger binding",log2 fold change,-0.18
NC(=O)c1ccc[n+]([C@@H]2O[C@H](COP(=O)([O-])OP(=O)(O)OC[C@H]3O[C@@H](n4cnc5c(NCCNC(=O)CCCCCNC(=O)CCCCCNC(=O)CCCC[C@@H]6SC[C@@H]7NC(=O)N[C@@H]76)ncnc54)[C@H](O)[C@@H]3O)[C@@H](O)[C@H]2O)c1,"Protein mono-ADP-ribosyltransferase PARP14 (PARP14, Homo sapiens, UniProt Q460N5)","enzyme auto-modification, substrate, DELFIA",,,,apparent Km,2 µM
Nc1ncnc2c1ncn2[C@@H]1O[C@H](COP(=O)(O)OP(=O)(O)OP(=O)(O)O)[C@@H](O)[C@H]1O,"Creatine kinase U-type, mitochondrial (CKMT1A, Homo sapiens, UniProt P12532, H99K)","substrate, ADP-Glo luminescence",,"pH 8.5, forward reaction, H61K mutant, added: second substrate in excess",,kcat,1.3 ± 0.6 s⁻¹
Cc1cc2c(cc1N1C(=O)c3cccc4c(CCCO)ccc(c34)C1=O)n(C)c(=O)n2C (racemic),"Protein polybromo-1, BD2 (PBRM1, Homo sapiens, UniProt Q86U86)","binding, BROMOscan binding",,100 nM,,inhibition,74%
O=C(CCCc1ccccc1)C(=O)NCCc1ccc(Oc2ccc(C(F)(F)F)cn2)cc1,"Carboxylesterase 1F (Ces1f, Mus musculus, UniProt Q91WU0)","inhibitor, measured: CES1F","mouse, WAT cytosol proteome",10 µM,"baseline: DMSO, lower = stronger inhibition",probe-enriched protein abundance,444000 a.u.
NC(=O)c1cccc(C#CCN(CC[C@H](N)C(=O)O)C[C@H]2O[C@@H](n3cnc4c(N)ncnc43)[C@H](O)[C@@H]2O)c1,"mRNA cap guanine-N(7) methyltransferase (RNMT, Homo sapiens, UniProt O43148)",cellular thermal shift,HeLa cell lysate,50 µM,baseline: DMSO,Tagg shift,~5 °C
CC(=O)N[C@H](C(=O)N[C@@H](CC(N)=O)C(=O)N[C@@H](CCCCN)C(=O)N[C@@H](C)C(=O)N[C@@H](CC(C)C)C(=O)N1CCC[C@H]1C(=O)N[C@@H](C)C(=O)N[C@@H](CC(C)C)C(=O)N1CCC[C@H]1C(=O)N[C@H](C(=O)N[C@@H](C)C(N)=O)C(C)C)C(C)C,"High osmolarity signaling protein SHO1, SH3 domain (SHO1, Saccharomyces cerevisiae, UniProt P40073)","binding, isothermal titration calorimetry","50 mM sodium phosphate, 100 mM NaCl","concentration not given, pH 7.0, 25 °C",,enthalpy change,-9.106 ± 0.0717 kcal/mol
Cc1cccc(NC(=O)Cn2cc(CO)c3ccccc32)c1,"Sodium channel protein type 8 subunit alpha, C-terminal domain (SCN8A, Homo sapiens, UniProt Q9UQD0)","binding, protein thermal shift",,25 µM,,delta Tm,2.6 °C
CC1(C)CC2(C)OC(=O)NC2(C)c2ccccc21 (stereo not shown),"ATP-dependent RNA helicase DDX1 (Homo sapiens, UniProt Q92499)","binding, affinity selection mass spectrometry",,,baseline: other proteins in batch,log fold enrichment,0.0133
[O-][S+]1CCCCS1 (stereo not shown),"Superoxide dismutase [Cu-Zn] (SOD1, Homo sapiens, UniProt P00441, G94A)",LC-MS,brain homogenate,"0.5 µM, 1 h, 37 °C",,SOD1 monomer fraction,99.7%
Cn1cc(-c2ccc(-c3cncc(Cl)c3N3CCC4(CCNC4=O)CC3)cc2)cn1,COLO 205,"gene expression, microarray, measured: EGLN3 mRNA",,"concentration not given, 6 h",baseline: untreated cells,log2 fold change,2.52
CC[C@H](C)C(=O)O[C@H]1C[C@H](O)C=C2C=C[C@H](C)[C@H](CC[C@@H](O)C[C@@H](O)CC(=O)O)[C@H]21,"Nuclear receptor subfamily 4 group A member 1 (NR4A1, Homo sapiens, UniProt P22736)","reporter gene, NBRE reporter full-length",,10 µM,baseline: vehicle,activation,1.06 fold
